# Assay results pooled from the literature.
# Numbered parts are unrelated; each lists some results of a single study.

# Study 1
# Target: Hepatocyte nuclear factor 3-alpha (Foxa1, Mus musculus, UniProt P35582, residues 1-468, full length assumed)
# UniProt P35582, sequence (whole entry, looked up): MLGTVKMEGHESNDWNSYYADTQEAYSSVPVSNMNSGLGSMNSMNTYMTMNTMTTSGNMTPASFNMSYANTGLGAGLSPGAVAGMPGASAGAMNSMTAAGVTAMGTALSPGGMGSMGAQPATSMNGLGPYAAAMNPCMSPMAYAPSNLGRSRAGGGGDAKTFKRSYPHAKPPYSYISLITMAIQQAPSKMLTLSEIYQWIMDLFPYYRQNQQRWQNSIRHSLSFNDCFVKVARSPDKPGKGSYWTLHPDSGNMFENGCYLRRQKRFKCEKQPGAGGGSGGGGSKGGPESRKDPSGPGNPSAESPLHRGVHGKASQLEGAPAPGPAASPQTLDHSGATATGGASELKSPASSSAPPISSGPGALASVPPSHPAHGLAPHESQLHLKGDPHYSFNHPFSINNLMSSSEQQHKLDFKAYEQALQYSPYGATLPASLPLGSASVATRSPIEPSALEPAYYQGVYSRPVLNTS
# Method: EMSA with sequencing
# Form: double-stranded DNA, one strand shown
# Medium: in vitro
# Tested at: 10 and 20 nM
# Setting: whole designed probe, mean of two concentrations, ends assumed
# Baseline: negative control set to 0
# Direction: higher = stronger binding
Strand,normalised bound fraction
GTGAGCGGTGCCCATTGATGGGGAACATAGACTCAATGAATCATCCCATTTTAGTTTTTAAGCTAAGCTAAGAAATACCATTGTTGAACTGTACTCAATTCAACAAACATGGATATAAATGTAATCTAGAAAATGAGACTACTTTCAGTGAGAATGCACACTATAATTCATAAGGTAAGTCTAGCTCAAATACTGAAAAGTCAACCATTTGGGATGAAATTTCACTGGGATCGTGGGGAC,0.0458 ratio
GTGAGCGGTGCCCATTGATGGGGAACGAAAATATTTATAGTTTCTCTAGGTTGTCAAGAATTGAATTCCTTTTAAATGTAGGCGATGTCATTTTATTTTCTTTGTTTACTTTGAACTTATGTTTACTCTTAATGAGGTTATTTACTTTTCCTACTTGAATTCAGAATGGAAACCATCTGTGACAGGGTTTATATTAACATGACTTTACTATCCACCTGTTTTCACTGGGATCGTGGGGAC,0.55 ratio
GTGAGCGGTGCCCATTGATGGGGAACTTTAACAACCTATAAACAGGGCCTCGGTATTGAATTCTTTGTCTTATTTAAGTCAAAAGGAACCAGATTACTTTTTTTATGGTTTTAACAAAGTAAACAGGAGCTGGAAAATATCCAAAACTGTTCAAATCAATGTTGTTTTTTACCAGGCTAGGGCTGTTAATAAATATACCATAAATGAGCTCAGACTTTTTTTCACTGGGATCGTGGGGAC,0.236 ratio
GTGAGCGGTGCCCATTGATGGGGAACCTTCCAAATTACATGAGATTTCTGTTTCTACATTTTCTTTGTCTTGGCATATTTGATGATGTGCATTGAGTCATTATATAGCTTCTAAGAATCAGATTACTTTTTACTATGTTAACAATGAGTTCTTGGGGATATTCCTGTTTGAAAATCACTGTACGTGTAGTAAATCTATTTCTGGGATCTCCATTCCCATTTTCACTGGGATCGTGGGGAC,0.0652 ratio
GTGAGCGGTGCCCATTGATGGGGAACGAATCTACAGACTGGTGATTGTAAAGATTGTTCTAGCTTTTACTATTCTATACAGTGTTCTAAATATGGAGTAGGAAGAGATTTATTGGACAATGTAATCTTATAGTCTGAAACTAAGGCTGTAATACTCATACTGTTTATAGCTGCCAACAATTTCTTCCAACAAAAGGGTTAGTAAAATTTGGTCAATAGTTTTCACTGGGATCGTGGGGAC,-0.0257 ratio

# Study 2
# Target: RNA binding protein fox-1 homolog 2, RRM domain, GST-SBP tag (RBFOX2, Homo sapiens, UniProt O43251-10, residues 100-194)
# Method: RNA Bind-n-Seq
# Form: RNA
# Medium: in vitro
# Tested at: 365 nM
# Setting: natural RNA segment, single round, ends assumed
# Baseline: no-protein control
# Direction: higher = stronger binding
# Target sequence (chain): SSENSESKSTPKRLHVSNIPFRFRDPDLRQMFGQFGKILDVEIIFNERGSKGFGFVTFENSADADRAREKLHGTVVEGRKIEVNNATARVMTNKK
Strand,RBNS enrichment (R)
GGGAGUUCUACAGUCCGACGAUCCCUAUCACUGUGAAUUGUGGCCUGGUCGCAGUUUGUAGUUUCAUUAAAUGGCCCUUUCACUCCCCUGCCUGGGCCUCUGCUGUCUUGCCUGGCUUCCUUCUUUUCUGAGAUGGAAUUCUCGGGUGCCAA,0.501
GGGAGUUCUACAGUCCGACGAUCAACAGAAGCCUCAAUGAUGAUCACUUUGAAUUGCUUGUGAUUUCAAAAAUAAAGCAGUGAAGCAAUACUUGUGUACACUGGUACUUUAUAAUGCUAACUAUAAACUGGUUUGGAAUUCUCGGGUGCCAA,0.846
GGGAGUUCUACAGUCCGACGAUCUGGUCACUAGCUGAUCUGUGAUGGCGUCCCUUCCCCCAUUGAUUUUCUGUGUUUGAAGUAUGUGCAUAUGUGCUUUACAGAAUAAAACAUCUGGAUUUACUUGGUUUGCCUGGAAUUCUCGGGUGCCAA,0.382
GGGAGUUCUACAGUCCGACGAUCGAUGGAUGAUUGCUUUUAACUACUGCCAGCUGAUGUCUCUCAGCCCCUGCCCUCAUACAAGAUUUUUCUCAGCCUUCAGCCUACCACUGCAGAAUCCGAUGUGACCCACCUGGAAUUCUCGGGUGCCAA,0.611
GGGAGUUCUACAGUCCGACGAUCAGUUUUGCCUGUCUAUAAAAGAUGAUAGUAAUUUACCAAGUGACAUUUGCAGAGAAACAGGUGUACAGUUAUCGUUGUACUUUUGUACAAUGUGAAUUUUGUUAAUAAAUUGGAAUUCUCGGGUGCCAA,0.441
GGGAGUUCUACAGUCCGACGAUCCCUCCACACCUCCCCGUAGAGGAGCGCCGAGCCUCGGCUCCUGCCGGCGGGAGCCCCCGAAUGCUGCACCCAGCCACCCAGCAGAGCCCGUUCAUGGUUGAUCUCCACGAUGGAAUUCUCGGGUGCCAA,0.461
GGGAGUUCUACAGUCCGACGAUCUGUAAAGUGCCCAAGAUCCUGCACCCAUAUCUUGGAACUUAUCUUUGUUCUACAUCAUUCUCUCUUGAUCAAGAAAUGAAAUUUCUUAAUCCUUGAAUAUUAGUAAGGUCUGGAAUUCUCGGGUGCCAA,0.289
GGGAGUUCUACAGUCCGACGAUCAAAAGCAACAGUAGCAGGGAAUUGAUCCACUUCUUAAUGCUUUCCUCCCUGGCAUGACCAUCCUGUCCUUUGUUAUUAUCCUGCAUUUUACGUCUUUGGAGGAACAGCUCUGGAAUUCUCGGGUGCCAA,1.72

# Study 3
# Target: Histone acetyltransferase KAT6A, winged helix 1, GST fusion (KAT6A, Homo sapiens, UniProt Q92794, residues 1-85)
# Method: protein binding microarray
# Form: double-stranded DNA, one strand shown
# Medium: in vitro
# Tested at: not given
# Setting: 8-mer, flanks averaged, mean of 2 arrays, mostly near background
# Baseline: not given
# Direction: higher = stronger binding
# Target sequence (chain): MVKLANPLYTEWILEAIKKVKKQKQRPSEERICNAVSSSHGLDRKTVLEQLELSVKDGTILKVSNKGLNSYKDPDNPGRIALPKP
Strand,E-score
GTAGTCAC,-0.0818
TCCCAGGA,-0.105
AACTCTCA,-0.0639
AAAGGCGG,0.232
AAGTCAAA,-0.242
ACTCAACG,0.0331
CAATCAAG,-0.149
AGTTGCGG,0.0945
AACAGGTT,-0.197
GCCAAGGC,-0.00797
CCGGAATC,0.166
AACCCCGA,0.196
AGGATTGC,-0.165
CCATACGA,-0.15
CATAGCGG,0.291
AAAACTAG,-0.116
CTACATTC,-0.11
ACCAAAGC,0.0287
TCGTAAGA,0.00929
CCGGGGAG,0.215
ATAATTTC,-0.0678
CGTTTCAA,0.00852
CTGTCATC,-0.107
TACGGAGA,0.0354
ACAGTTCC,0.14

# Study 4
# Target: Interferon regulatory factor 7, full length, phosphomimetic (IRF7, Homo sapiens, UniProt Q92985, residues 1-503, S101K/S471D/S472D/S475D/S476D/S477D/S483D/S484D/S487D)
# Method: protein-binding microarray
# Form: double-stranded DNA, one strand shown
# Medium: in vitro
# Tested at: 250 nM
# Setting: 60-bp whole probe
# With: salmon DNA 0.4 mg/ml
# Baseline: random background probes
# Direction: higher = stronger binding
# All sequences stand within: GCCTAGCAC … GTCTTGATTCGCTTGACGCTGCTG
# Target sequence (chain): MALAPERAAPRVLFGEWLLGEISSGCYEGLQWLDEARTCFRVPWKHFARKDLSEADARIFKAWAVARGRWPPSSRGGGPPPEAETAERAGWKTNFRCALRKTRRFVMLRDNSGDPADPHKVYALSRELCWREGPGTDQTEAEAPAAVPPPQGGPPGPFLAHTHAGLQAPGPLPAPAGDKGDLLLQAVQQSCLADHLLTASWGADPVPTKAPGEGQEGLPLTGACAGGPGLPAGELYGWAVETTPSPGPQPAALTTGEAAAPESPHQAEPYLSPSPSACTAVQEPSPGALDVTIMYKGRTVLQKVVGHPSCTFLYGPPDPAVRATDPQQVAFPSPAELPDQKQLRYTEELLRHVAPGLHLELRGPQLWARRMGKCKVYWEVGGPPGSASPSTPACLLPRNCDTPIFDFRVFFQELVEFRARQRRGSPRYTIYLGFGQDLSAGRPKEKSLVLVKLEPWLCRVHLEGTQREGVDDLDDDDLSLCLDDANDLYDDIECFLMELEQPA
Strand,log fluorescence
GACGATTTAAGTATCGAGACGTGCTAG,0.0525 z-score
TTAGATATCAGACTGGATCAGTGCTAG,-0.246 z-score
TTAGGACTGGGACTGGGGTAGTGCTAG,-0.323 z-score
TTAGGTATCGACTATCGGTTTGTGCTA,0.502 z-score
TTAGGTTCCGCTTTCGGTTAGTGCTAG,6.56 z-score
GACGGTTTCCTTTTCCTAACGTGCTAG,7.4 z-score
TTAGGTTCCGGTATCGGTTAGTGCTAG,3.72 z-score
TTAGGTATGGGTATCGGTTAGTGCTAG,0.858 z-score

# Study 5
# Target: Sal-like protein 4, full length isoform B (SALL4, Homo sapiens, UniProt Q9UJQ4-2, residues 1-616)
# Method: universal PBM
# Form: double-stranded DNA, one strand shown
# Medium: in vitro
# Tested at: not given
# Setting: 8-mer, flanks averaged, mean of replicates
# Direction: higher = stronger binding
# Residues (chain): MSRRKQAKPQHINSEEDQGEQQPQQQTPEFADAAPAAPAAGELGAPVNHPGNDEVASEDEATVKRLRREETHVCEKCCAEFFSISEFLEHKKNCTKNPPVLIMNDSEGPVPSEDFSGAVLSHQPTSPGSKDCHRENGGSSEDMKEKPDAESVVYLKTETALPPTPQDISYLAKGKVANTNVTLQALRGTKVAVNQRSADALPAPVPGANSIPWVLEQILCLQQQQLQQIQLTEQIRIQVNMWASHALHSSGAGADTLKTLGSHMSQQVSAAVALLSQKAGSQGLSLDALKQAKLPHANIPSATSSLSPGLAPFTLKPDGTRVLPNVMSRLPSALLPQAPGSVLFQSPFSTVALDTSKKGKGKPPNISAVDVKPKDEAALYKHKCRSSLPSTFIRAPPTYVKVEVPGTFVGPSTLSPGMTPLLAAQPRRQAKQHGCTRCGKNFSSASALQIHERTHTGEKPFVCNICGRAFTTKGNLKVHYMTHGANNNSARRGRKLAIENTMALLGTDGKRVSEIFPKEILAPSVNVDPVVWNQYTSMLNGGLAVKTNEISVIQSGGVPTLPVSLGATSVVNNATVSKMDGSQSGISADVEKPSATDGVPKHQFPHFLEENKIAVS
Strand,E-score
GTGAAGGA,0.0842
GGCAGCTA,-0.189
ATCGCTTA,-0.0421
TCAAGCAA,-0.0773
GGGTCTTA,-0.112
TAGCTAAA,0.144
AATCATAC,0.274
ATCCGTAG,-0.0304
CGGTTTAA,-0.035
GCTAATCC,-0.0161
ACGCCAAA,0.0344
AAGTCTTG,-0.00087
AATATCGG,0.194
CGTTCTAA,0.0659
AGTTAGTG,-0.00668
CCACGCTC,-0.379
ACGCCCAA,-0.0429
CTAGAATA,0.296
ACATGACA,0.188
CTTGAGGA,-0.0846
GAGCTCTA,-0.0965
ATTCAGTC,-0.0101
GATGGCCC,-0.387
AGTACGTA,0.208

# For quick reference, copied from above (study 4):
Strand,log fluorescence
GACGGTTTCCTTTTCCTAACGTGCTAG,7.4 z-score
TTAGGTATCGACTATCGGTTTGTGCTA,0.502 z-score
GACGATTTAAGTATCGAGACGTGCTAG,0.0525 z-score
TTAGGTATGGGTATCGGTTAGTGCTAG,0.858 z-score
